Results pooled from the literature.
Numbered parts are unrelated; each lists some results of a single study. Several values in a cell are separate wells, animals, samples, runs or records.
Sequence of UniProt P16234 (whole entry, looked up): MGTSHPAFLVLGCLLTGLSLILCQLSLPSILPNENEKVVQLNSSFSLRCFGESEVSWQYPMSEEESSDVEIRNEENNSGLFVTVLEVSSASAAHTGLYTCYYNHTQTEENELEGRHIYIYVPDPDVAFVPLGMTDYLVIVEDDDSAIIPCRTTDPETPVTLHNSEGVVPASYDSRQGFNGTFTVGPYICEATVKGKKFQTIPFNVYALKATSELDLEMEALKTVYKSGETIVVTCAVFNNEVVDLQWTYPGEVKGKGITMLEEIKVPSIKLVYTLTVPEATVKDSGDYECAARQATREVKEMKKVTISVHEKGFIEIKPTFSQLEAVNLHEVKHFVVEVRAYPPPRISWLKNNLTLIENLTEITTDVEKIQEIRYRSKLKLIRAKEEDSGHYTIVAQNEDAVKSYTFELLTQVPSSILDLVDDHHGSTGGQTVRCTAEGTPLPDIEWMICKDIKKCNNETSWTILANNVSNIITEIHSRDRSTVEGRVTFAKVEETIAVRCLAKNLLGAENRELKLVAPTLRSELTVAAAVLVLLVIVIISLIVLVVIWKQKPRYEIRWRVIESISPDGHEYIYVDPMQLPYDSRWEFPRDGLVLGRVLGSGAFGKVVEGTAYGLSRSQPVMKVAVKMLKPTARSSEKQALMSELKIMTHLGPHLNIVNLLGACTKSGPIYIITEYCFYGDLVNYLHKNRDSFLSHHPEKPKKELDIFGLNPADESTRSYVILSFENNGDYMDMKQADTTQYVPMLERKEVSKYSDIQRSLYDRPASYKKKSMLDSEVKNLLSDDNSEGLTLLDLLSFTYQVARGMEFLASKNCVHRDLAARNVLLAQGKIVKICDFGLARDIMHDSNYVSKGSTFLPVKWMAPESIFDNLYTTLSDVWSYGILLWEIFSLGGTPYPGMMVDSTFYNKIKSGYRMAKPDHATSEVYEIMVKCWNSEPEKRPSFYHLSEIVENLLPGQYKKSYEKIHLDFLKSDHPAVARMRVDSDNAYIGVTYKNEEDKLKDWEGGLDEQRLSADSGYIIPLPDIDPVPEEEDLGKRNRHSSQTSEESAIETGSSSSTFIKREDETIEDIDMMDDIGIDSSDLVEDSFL
Sequence of UniProt P78368 (whole entry, looked up): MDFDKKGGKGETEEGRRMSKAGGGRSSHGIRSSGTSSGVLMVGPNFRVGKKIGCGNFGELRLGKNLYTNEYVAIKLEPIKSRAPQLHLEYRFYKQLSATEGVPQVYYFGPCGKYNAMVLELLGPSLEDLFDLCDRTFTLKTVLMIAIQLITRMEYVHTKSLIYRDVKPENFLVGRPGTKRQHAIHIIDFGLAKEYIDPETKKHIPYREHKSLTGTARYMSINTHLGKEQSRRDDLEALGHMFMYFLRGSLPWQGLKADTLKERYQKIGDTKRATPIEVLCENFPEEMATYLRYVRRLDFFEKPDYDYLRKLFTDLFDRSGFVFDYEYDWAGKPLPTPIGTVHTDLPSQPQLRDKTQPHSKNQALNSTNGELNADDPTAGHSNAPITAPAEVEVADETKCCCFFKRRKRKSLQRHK
Sequence of UniProt Q9Y6M4 (whole entry, looked up): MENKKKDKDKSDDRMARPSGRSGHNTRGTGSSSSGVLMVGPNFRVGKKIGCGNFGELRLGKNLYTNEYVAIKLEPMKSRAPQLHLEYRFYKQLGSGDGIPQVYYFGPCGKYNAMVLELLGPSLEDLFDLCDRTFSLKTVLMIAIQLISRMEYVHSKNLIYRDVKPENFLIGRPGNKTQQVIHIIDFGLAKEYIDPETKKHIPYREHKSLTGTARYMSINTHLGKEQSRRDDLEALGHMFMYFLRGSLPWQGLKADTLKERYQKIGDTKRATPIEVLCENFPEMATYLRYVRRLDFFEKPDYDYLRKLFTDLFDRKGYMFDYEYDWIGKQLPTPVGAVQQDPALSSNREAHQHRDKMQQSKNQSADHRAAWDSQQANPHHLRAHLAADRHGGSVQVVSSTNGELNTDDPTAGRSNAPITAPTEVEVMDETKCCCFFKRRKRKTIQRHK
Sequence of UniProt Q99683 (whole entry, looked up): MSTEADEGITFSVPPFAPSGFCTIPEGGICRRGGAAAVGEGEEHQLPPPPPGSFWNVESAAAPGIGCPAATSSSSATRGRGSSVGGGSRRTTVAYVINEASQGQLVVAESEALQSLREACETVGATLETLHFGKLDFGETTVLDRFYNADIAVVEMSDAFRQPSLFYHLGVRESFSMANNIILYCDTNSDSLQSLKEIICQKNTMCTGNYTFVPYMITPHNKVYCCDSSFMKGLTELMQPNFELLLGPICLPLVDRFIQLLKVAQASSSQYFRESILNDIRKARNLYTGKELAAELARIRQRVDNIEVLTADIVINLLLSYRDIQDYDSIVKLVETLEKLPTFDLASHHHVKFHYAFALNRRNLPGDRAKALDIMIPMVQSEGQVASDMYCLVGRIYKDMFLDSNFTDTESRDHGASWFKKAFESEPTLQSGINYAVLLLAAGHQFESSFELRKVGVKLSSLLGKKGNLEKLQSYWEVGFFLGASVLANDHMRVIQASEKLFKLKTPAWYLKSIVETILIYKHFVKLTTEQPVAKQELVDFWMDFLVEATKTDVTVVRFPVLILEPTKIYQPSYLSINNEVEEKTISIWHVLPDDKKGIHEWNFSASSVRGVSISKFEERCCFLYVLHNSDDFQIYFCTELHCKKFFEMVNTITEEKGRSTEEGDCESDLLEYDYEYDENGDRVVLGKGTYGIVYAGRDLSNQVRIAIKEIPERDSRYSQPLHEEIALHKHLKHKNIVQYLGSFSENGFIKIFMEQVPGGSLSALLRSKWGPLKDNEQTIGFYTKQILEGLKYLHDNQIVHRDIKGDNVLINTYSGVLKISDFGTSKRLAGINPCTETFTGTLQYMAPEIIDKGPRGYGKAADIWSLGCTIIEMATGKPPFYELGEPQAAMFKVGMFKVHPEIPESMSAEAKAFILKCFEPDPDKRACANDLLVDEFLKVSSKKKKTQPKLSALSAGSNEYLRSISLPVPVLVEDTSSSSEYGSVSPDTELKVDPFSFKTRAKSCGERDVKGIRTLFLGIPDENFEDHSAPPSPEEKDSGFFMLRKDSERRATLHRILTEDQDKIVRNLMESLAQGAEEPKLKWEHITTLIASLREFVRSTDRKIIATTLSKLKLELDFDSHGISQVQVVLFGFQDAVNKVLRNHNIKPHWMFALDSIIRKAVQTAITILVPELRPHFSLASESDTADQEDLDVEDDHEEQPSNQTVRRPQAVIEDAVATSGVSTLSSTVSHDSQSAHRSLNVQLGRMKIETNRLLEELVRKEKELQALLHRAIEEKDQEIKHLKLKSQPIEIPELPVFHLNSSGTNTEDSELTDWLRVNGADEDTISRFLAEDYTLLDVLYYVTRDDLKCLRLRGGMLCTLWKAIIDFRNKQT
Sequence of UniProt P27361 (whole entry, looked up): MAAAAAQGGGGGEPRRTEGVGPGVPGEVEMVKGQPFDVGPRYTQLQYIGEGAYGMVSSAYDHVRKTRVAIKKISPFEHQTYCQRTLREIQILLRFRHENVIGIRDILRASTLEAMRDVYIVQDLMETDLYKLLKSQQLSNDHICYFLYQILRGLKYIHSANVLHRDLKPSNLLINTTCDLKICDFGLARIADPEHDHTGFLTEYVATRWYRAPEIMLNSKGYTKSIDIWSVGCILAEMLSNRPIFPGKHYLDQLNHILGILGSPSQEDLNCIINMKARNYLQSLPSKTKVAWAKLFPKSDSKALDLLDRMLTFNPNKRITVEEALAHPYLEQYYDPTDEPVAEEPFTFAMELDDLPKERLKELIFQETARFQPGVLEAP
Sequence of UniProt Q15349 (whole entry, looked up): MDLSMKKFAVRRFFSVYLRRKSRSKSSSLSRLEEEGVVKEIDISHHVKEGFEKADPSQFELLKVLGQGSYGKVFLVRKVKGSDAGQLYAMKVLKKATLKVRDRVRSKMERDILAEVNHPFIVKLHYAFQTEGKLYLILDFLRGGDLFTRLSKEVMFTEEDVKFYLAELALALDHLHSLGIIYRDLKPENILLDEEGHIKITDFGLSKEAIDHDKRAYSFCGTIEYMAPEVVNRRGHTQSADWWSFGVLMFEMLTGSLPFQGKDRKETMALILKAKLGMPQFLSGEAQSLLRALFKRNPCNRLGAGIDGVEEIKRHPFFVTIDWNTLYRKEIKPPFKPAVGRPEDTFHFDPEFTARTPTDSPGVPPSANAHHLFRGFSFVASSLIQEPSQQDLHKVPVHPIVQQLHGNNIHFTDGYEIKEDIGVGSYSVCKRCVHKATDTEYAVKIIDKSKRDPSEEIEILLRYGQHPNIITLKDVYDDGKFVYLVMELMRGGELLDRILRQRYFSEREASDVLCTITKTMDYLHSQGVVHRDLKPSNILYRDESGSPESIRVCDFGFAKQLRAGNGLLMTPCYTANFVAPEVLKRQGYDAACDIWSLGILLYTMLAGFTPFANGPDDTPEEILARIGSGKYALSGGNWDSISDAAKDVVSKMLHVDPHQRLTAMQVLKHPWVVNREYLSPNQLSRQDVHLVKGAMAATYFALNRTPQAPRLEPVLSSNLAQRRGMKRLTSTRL
Sequence of UniProt P42685 (whole entry, looked up): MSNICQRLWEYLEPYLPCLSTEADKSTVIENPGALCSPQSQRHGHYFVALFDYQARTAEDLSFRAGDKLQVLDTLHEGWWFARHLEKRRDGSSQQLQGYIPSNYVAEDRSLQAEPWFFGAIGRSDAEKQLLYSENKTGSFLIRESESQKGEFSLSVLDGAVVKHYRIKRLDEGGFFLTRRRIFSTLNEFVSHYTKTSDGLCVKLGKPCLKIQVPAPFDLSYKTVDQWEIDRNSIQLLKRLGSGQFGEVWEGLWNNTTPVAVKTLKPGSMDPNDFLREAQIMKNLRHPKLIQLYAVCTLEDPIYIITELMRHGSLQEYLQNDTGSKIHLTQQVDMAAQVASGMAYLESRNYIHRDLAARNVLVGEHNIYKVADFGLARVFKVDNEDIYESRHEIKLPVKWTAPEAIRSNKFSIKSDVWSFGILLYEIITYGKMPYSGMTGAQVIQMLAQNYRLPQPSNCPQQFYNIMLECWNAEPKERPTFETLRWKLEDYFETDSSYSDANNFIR

Block 1 — cell line: mouse MPNST tumor cells; technique: high-content immunofluorescence imaging; refers to: nuclear SOX9; concentration: 10 µM; time: 12 h; notes: mean of 2 replicates; reference: DMSO control; direction: higher = more nuclear SOX9
| SMILES | nuclear SOX9 intensity |
| --- | --- |
| CCOc1ccc(-n2c(C(C)N(Cc3cccnc3)C(=O)Cc3ccc(OC(F)(F)F)cc3)nc3ncccc3c2=O)cc1 (centres unmarked) | 99 % of DMSO |
| CC#CCOc1ccc(S(=O)(=O)N2CCSC(C)(C)[C@@H]2C(=O)NO)cc1 | 83.3 % of DMSO |
| Clc1cccc(Cl)c1NC1=NCCN1 | 106 % of DMSO |
| NNC(=O)c1ccncc1 | 94.5 % of DMSO and 98.2 % of DMSO |

Block 2 — action: inhibitor; concentration: 10 µM; reference: control
Target: Diamine acetyltransferase 1 (Homo sapiens, UniProt P21673)
Target sequence (P21673 1-171): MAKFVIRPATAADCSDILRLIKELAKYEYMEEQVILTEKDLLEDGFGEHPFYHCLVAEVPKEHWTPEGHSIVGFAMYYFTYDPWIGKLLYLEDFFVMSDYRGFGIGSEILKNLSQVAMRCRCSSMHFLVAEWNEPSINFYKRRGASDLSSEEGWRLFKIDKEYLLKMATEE
| SMILES | remaining activity [%] |
| --- | --- |
| OC[C@H]1O[C@@H](Oc2ccc(O)cc2)[C@H](O)[C@@H](O)[C@@H]1O | 91.8 |
| CC1(O)CCOC(=O)C1 (racemic) | 90.7 |
| CC[C@H](C)[C@H](N)C(=O)O | 82.6 |

Block 3 — technique: Phase 2a trial; host: idiopathic pulmonary fibrosis patients
Structure (SMILES): CC(C)n1cnc(-c2ccc(F)cc2)c1-c1ncc(C(=O)Nc2ccc(N3CCN(C)CC3)cc2)[nH]1
| assay | conditions | patients with adverse events |
| --- | --- | --- |
| refers to: muscular weakness | dose not given, grade 3 maximum intensity, all arms | 0% |
| refers to: reticulocyte count increased | 60 mg once daily, grade 5 maximum intensity | 0% |
| refers to: bile acids increased | 30 mg once daily, grade 2 maximum intensity | 0% |
| refers to: back pain | 30 mg once daily, grade 2 maximum intensity | 0% |

Block 4 — read-out: cell-free assay; technique: competition with immobilised ligand; concentration: 1 µM
SMILES: O=C(NC[C@@H]1[C@H]2CN(C(=O)OCc3cc(C(F)(F)F)cc(C(F)(F)F)c3)C[C@@H]12)c1ccc2[nH]nnc2c1
| target | remaining binding |
| --- | --- |
| PDGFRA (Homo sapiens, UniProt P16234) | 97% |
| CDKL3 (Homo sapiens, UniProt Q8IVW4) | 87% |
| EIF2AK1 (Homo sapiens, UniProt Q9BQI3) | 91% |

Block 5 — cell line: A-375; concentration: 100 µM; time: 18 h
| SMILES | viability [%] |
| --- | --- |
| CC(=O)N1CCN(c2ccc(OC[C@@H]3CO[C@@](Cn4ccnc4)(c4ccc(Cl)cc4Cl)O3)cc2)CC1 (racemic) | 7.58 |
| C[C@]12C=CC(=O)C=C1CC[C@@H]1[C@@H]2[C@@H](O)C[C@@]2(C)[C@H]1CC[C@]2(O)C(=O)COP(=O)(O)O | 99.6 |
| O=C(O)COC(=O)Cc1ccccc1Nc1c(Cl)cccc1Cl | 92.1 |

Block 6 — host: human; medium: microsomes or S9; concentration: 2 µM; time: 0.5 h
| SMILES | remaining compound |
| --- | --- |
| CCN(CC)S(=O)(=O)c1ccc(OC)c(NC(=O)CCCOc2ccc(Cl)c(C)c2)c1 | 18.9% |
| COCCCn1c(C(=O)Nc2cc(Cl)ccc2OC)cc2c(=O)n3ccccc3nc21 | 28.5% |
| COC(=O)C12CC(CCC(C)=O)C(=O)N1CCc1c2n(C(=O)OC(C)(C)C)c2ccccc12 (centres unmarked) | 2.34% |
| CCOC(=O)C(Cc1ccccc1)(NC(C)=O)C(=O)OCC | > 99% |

Block 7 — SMILES: Clc1ccc(Nc2nnc(Cc3ccncc3)c3ccccc23)cc1; read-out: enzyme activity; action: inhibitor; concentration: 0.5 µM; reference: control
| target | remaining activity [%] |
| --- | --- |
| EPHA3 (Homo sapiens, UniProt P29320) | 98.8 |
| RPS6KA2 (Homo sapiens, UniProt Q15349) | 97.5 |
| MERTK (Homo sapiens, UniProt Q12866) | 116 |
| JAK3 (Homo sapiens, UniProt P52333) | 92.1 |
| FRK (Homo sapiens, UniProt P42685) | 95.4 |
| FGFR3 (Homo sapiens, UniProt P22607) | 91.5 |
| GSK3B (Homo sapiens, UniProt P49841) | 104 |
| ARAF (Homo sapiens, UniProt P10398) | 97.6 |
| MAPK3 (Homo sapiens, UniProt P27361) | 94.7 |
| NEK1 (Homo sapiens, UniProt Q96PY6) | 75.3 |
| CSNK1G3 (Homo sapiens, UniProt Q9Y6M4) | 100 |
| NEK6 (Homo sapiens, UniProt Q9HC98) | 93.3 |
| TBK1 (Homo sapiens, UniProt Q9UHD2) | 104 |
| TAOK2 (Homo sapiens, UniProt Q9UL54) | 85.4 |
| ULK2 (Homo sapiens, UniProt Q8IYT8) | 99.9 |
| CSNK1G2 (Homo sapiens, UniProt P78368) | 98.2 |
| MAP3K5 (Homo sapiens, UniProt Q99683) | 101 |
| WEE1 (Homo sapiens, UniProt P30291) | 109 |
| GRK7 (Homo sapiens, UniProt Q8WTQ7) | 92.2 |
| MAP2K2 (Homo sapiens, UniProt P36507) | 100 |
| LCK (Homo sapiens, UniProt P06239) | 87 |
| MAP3K14 (Homo sapiens, UniProt Q99558) | 126 |

Further values, each from its own experiment
| Structure (SMILES) | target | assay | conditions | quantity | result |
| --- | --- | --- | --- | --- | --- |
| C[C@H]1CC[C@H](n2c3cnccc3c3cnc(Nc4ccc5c(n4)CCN(C(=O)CO)C5)nc32)CC1 | Serine/threonine-protein kinase N1 (PKN1, Homo sapiens, UniProt Q16512) | cell-free assay | 1 µM | remaining signal | 91% |

For quick reference, copied from above (block 3):
| assay | conditions | patients with adverse events |
| --- | --- | --- |
| refers to: back pain | 30 mg once daily, grade 2 maximum intensity | 0% |
| refers to: reticulocyte count increased | 60 mg once daily, grade 5 maximum intensity | 0% |
| refers to: bile acids increased | 30 mg once daily, grade 2 maximum intensity | 0% |
| refers to: muscular weakness | dose not given, grade 3 maximum intensity, all arms | 0% |
